Results of several laboratories.
Compare with care: the assays were run in different laboratories. Numbers after ± are the reported error.
Gria2/Glutamate receptor 3: Gria2/Glutamate receptor 3 (Rattus norvegicus, UniProt P19491+P19492)
Chain of UniProt P19492 (whole entry, looked up): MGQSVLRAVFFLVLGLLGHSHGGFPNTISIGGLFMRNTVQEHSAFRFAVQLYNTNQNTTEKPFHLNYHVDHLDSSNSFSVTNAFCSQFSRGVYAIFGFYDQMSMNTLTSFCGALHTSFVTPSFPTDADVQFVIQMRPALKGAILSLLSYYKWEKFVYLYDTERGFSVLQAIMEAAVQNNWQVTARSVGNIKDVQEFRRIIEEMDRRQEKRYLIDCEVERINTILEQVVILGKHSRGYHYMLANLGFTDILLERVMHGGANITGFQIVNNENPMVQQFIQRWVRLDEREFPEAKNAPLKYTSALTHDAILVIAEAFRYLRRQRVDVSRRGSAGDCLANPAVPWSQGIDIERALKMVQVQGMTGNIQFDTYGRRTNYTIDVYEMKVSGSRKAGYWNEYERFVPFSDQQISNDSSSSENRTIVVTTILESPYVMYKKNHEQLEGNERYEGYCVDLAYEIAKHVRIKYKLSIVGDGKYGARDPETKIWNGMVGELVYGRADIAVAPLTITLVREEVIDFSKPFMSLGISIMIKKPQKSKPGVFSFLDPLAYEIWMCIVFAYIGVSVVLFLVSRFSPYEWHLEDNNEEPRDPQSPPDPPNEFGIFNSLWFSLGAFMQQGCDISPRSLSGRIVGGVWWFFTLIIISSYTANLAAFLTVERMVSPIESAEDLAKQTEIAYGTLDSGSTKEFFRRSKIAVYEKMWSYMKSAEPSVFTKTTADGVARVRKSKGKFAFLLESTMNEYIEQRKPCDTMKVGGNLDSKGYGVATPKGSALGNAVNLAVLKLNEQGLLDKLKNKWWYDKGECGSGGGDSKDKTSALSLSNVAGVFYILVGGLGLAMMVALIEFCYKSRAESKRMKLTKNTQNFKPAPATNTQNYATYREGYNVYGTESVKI
Chain of UniProt P19491 (whole entry, looked up): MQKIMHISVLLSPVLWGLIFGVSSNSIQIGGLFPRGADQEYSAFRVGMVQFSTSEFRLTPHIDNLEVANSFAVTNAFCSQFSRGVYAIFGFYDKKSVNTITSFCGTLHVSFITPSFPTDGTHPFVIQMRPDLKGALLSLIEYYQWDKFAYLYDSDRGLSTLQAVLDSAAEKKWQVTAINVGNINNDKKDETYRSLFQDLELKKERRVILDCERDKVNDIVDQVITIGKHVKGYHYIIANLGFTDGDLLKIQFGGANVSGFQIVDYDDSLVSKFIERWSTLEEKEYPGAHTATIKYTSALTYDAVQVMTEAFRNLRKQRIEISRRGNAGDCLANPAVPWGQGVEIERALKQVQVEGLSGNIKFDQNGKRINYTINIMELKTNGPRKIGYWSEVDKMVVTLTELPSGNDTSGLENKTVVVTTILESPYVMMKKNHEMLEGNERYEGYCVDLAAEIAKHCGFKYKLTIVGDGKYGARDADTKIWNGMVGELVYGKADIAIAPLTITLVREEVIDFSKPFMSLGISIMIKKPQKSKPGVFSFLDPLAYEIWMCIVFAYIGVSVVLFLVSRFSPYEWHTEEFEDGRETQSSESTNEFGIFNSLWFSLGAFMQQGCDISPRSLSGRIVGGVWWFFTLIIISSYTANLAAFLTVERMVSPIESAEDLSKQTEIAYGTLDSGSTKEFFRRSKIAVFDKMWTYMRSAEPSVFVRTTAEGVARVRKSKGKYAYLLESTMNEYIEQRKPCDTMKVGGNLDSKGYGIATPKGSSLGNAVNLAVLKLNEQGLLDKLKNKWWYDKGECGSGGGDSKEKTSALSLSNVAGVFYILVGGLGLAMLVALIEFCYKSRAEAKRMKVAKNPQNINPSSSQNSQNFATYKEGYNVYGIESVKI
Chain of UniProt Q9UF33 (whole entry, looked up): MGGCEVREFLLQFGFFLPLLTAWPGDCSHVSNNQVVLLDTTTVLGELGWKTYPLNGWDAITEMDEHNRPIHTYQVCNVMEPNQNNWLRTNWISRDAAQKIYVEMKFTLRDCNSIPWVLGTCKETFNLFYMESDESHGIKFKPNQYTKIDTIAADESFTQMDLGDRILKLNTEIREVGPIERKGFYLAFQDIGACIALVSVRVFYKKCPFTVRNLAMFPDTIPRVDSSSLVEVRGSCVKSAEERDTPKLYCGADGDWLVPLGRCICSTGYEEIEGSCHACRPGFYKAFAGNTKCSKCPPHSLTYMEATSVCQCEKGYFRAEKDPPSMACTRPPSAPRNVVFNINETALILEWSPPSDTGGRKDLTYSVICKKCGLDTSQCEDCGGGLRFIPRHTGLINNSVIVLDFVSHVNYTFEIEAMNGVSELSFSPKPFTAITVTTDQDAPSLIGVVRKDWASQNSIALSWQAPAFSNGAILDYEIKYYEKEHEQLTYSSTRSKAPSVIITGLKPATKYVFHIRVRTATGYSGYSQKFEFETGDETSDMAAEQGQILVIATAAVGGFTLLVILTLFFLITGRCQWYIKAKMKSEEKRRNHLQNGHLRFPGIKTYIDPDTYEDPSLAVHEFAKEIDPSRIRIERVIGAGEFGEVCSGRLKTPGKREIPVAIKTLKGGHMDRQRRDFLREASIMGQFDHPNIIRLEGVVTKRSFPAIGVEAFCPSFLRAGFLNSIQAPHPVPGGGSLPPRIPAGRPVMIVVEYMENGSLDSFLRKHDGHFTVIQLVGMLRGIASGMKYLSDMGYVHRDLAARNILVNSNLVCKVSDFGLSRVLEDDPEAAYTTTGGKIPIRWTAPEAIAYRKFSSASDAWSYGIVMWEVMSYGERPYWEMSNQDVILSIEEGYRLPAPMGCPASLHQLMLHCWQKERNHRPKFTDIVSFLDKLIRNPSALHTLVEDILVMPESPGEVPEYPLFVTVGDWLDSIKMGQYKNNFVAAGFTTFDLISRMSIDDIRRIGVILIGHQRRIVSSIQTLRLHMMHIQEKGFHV
Chain of UniProt P42336 (whole entry, looked up): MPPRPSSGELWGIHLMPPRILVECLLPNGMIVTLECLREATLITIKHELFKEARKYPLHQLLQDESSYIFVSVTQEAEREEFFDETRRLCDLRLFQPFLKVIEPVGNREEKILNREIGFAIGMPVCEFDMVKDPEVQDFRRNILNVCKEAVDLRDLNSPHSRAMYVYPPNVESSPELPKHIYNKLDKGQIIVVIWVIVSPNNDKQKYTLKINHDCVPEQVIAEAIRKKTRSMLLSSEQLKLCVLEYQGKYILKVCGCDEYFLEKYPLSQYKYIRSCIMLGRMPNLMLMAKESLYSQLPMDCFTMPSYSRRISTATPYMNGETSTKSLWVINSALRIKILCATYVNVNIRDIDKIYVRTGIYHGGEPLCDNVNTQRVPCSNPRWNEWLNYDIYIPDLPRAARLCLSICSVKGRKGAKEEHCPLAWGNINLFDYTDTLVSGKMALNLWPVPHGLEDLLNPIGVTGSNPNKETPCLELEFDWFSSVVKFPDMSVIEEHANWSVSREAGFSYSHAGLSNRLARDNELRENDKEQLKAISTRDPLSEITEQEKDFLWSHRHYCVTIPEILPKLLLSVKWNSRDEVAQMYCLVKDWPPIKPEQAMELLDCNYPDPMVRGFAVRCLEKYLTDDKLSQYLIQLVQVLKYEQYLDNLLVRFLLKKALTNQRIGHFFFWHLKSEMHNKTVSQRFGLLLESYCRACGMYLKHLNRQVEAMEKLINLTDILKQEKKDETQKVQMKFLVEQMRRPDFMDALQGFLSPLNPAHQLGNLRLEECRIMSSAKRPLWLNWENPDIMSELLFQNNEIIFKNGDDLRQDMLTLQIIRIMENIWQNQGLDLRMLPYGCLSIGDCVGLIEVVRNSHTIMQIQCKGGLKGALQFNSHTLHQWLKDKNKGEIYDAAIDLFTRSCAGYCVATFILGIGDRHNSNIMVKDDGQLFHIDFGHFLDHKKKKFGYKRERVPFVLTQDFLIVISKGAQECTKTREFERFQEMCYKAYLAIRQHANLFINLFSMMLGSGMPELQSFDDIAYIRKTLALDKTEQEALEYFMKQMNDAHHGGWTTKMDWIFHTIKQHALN
Chain of UniProt Q9BUB5 (whole entry, looked up): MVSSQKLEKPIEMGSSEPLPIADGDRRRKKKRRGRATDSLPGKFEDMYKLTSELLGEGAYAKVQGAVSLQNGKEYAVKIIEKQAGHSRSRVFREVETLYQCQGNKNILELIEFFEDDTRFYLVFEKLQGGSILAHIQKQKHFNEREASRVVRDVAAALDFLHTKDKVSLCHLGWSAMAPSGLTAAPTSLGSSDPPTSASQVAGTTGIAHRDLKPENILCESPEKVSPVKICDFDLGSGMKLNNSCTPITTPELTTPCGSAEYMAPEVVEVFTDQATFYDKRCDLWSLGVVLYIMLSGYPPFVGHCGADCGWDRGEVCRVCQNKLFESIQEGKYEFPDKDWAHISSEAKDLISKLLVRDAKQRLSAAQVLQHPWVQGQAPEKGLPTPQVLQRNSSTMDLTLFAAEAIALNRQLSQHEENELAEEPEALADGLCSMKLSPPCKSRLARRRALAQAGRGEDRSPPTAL
Chain of UniProt P10415 (whole entry, looked up): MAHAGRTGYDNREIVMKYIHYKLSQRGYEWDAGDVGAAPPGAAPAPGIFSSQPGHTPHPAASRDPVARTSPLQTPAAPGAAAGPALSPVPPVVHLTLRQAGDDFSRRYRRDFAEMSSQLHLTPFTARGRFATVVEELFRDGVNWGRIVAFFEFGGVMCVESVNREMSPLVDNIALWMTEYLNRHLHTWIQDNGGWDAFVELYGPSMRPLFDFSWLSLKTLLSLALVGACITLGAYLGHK
Chain of UniProt P14902 (whole entry, looked up): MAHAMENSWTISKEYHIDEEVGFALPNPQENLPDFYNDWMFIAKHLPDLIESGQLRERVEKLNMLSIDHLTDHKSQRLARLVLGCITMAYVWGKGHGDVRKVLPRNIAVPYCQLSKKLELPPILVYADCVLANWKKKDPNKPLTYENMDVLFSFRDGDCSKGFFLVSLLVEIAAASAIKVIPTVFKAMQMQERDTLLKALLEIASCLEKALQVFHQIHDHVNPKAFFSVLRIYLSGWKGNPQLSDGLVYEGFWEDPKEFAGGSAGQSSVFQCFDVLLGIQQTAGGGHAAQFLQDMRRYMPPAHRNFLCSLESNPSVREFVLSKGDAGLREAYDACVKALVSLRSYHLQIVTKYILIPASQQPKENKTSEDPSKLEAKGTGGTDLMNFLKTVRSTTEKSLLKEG

Compound	target	test	test system	setting	IC50 [µM]
Cc1nn(-c2cccc(N)c2)c(=O)c2cnc(Nc3ccc(N4CCNCC4)cc3)nc12	PDGFRA (Homo sapiens, UniProt P16234, V561D)	enzyme activity, inhibitor	–	–	0.491
CCn1nc(Cl)c2c1-c1cnc(N)c(c1)O[C@H](C)c1cc(F)ccc1-c1nn(C)cc1C2	EPHA6 (Homo sapiens, UniProt Q9UF33)	enzyme activity, inhibitor, radiometric	–	–	0.115
Cc1nc(Nc2ccc3c(c2)/C(=C/c2c[nH]c4ccccc24)C(=O)N3)c2ccccc2n1	PIK3CA (Homo sapiens, UniProt P42336)	enzyme activity, inhibitor, ADP detection	–	–	0.0386
CCCC(=O)OC1CCC2(C)C(CCC3(C)C2CC=C2C4C(C)C(C)CCC4(C(=O)O)CCC23C)C1(C)C (stereo not shown)	UGT1A3 (Homo sapiens, UniProt P35503)	enzyme activity, inhibitor	–	–	70.2
OC[C@H]1O[C@@H](Oc2cc3c(O)cc(O)cc3[o+]c2-c2cc(O)c(O)c(O)c2)[C@H](O)[C@@H](O)[C@H]1O	PPO3 (Agaricus bisporus, UniProt C7FF04)	enzyme activity, inhibitor, absorbance	–	pH 6.8	45.1
COC(=O)Cc1cc2c(cc1C(=O)c1ccccc1Cl)OCO2	Gria2/Glutamate receptor 3	ion current, patch clamp	–	–	5.31
CN1CC[C@@H](COc2cnc(C#N)cc2-c2ccn3nc(NC(=O)C4CC4)cc3c2)C1	SIK3 (Homo sapiens, UniProt Q9Y2K2)	enzyme activity, inhibitor	–	–	2.05
COc1ccc2c(=O)oc3c(OC)cc(CC=O)c4c(=O)oc1c2c34	TLR2 (Homo sapiens, UniProt O60603)	reporter gene, inhibitor, SEAP reporter	HEK-Blue hTLR2	24 h, added: Pam3CSK4 100 ng/mL	39.5 ± 2.56
Nc1ncc(-c2cc(-c3cnn(CC(F)(F)F)c3)ncc2F)nc1C(=O)NC1CNCC(F)C1 (stereo not shown)	MKNK1 (Homo sapiens, UniProt Q9BUB5)	enzyme activity, inhibitor, radiometric	–	–	0.348
O=C(O)Cc1cc2c(cc1C(=O)c1ccccc1)OCO2	Gria2/Glutamate receptor 3	ion current, patch clamp	–	–	5.51
CC1CCC2C(C)C(OC(=O)CCC(=O)OCCOCCOC(=O)N3CCC(Nc4ccc(S(=O)(=O)NC(=O)c5ccc(N6CCN(CC7=C(c8ccc(Cl)cc8)CC(C)(C)CC7)CC6)cc5Oc5cnc6[nH]ccc6c5)cc4[N+](=O)[O-])CC3)OC3OC4(C)CCC1C32OO4 (stereo not shown)	BCL2 (Homo sapiens, UniProt P10415)	ligand displacement, FP	–	–	0.812
O=C(CNc1cccc2c1C(=O)N(C1CCC(=O)NC1=O)C2=O)NCCOCCOCCOCC(=O)N1CCC(CNC(=O)c2cccc(-c3noc(C(F)(F)F)n3)c2)(c2nc(-c3ccccc3)cs2)CC1 (stereo not shown)	HDAC7 (Homo sapiens, UniProt Q8WUI4)	enzyme activity, inhibitor	–	–	0.35
O=C(CCNC(=O)CNC(=O)CC(c1ccccc1)(c1ccccc1)c1ccccc1)NCC1CCN(C(=O)c2ccc(F)cc2)CC1	CHRM1 (Homo sapiens, UniProt P11229)	ligand displacement, radioligand	–	cell membranes	> 30
COc1ccc(CNC(=O)c2cnc3c(c(C)nn3C)c2Cl)cc1	60 kDa heat shock protein, mitochondrial, with HSP10 (Homo sapiens, UniProt P10809)	ATPase activity	–	30 min, added: HSP10	> 250
Cn1c(=O)c(C(N)=O)c(N2CCC(Oc3ccc(OC(F)(F)F)cc3)CC2)c2ccccc21	DGKZ (Homo sapiens, UniProt Q13574)	lipid kinase activity, inhibitor, ADP-Glo	–	–	> 10000
Cc1oc(C)c(-c2ccc(N(CC(C)C)CC(C)C)c(NC(=O)Nc3ccccc3)c2)c1C(=O)O	IDO1 (Homo sapiens, UniProt P14902)	enzyme activity, inhibitor, recombinant enzyme, refers to: kynurenine	–	20 min, 2% DMSO, added: L-tryptophan	30 ± 4

Some of these lines once more:
Compound	target	test	test system	setting	IC50 [µM]
Cn1c(=O)c(C(N)=O)c(N2CCC(Oc3ccc(OC(F)(F)F)cc3)CC2)c2ccccc21	DGKZ (Homo sapiens, UniProt Q13574)	lipid kinase activity, inhibitor, ADP-Glo	–	–	> 10000
